Results from different studies.
Lines come from different studies, so protocols differ. “And” joins repeats or separate records; there may be more than shown. Numbers after ± are the reported error.
Target: Muscarinic acetylcholine receptor M3 (CHRM3, Homo sapiens, UniProt P20309)
UniProt P20309, sequence (whole entry, looked up): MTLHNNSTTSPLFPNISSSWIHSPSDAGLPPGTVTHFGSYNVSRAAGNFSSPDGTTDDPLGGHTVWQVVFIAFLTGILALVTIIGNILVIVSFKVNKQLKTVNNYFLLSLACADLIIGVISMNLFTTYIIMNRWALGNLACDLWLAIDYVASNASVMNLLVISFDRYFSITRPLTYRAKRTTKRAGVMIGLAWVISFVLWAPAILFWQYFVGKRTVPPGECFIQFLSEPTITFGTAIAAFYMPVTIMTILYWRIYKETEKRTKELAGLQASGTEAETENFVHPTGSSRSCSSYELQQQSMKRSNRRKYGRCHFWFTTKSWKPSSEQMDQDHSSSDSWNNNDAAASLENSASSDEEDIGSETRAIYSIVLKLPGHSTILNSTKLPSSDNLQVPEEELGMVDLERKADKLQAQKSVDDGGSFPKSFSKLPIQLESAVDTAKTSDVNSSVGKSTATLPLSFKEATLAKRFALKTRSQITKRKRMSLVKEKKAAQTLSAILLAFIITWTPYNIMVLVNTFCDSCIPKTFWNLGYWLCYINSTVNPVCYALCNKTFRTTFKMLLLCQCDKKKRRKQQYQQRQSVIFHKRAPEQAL

SMILES = CCCCOc1ccc(C(=O)OCC[N+]2(C)CC=CCC2)cc1 (stereo not drawn); test system = membranes; setting = 100 µM, 15 h, together with: carbachol; how to read = relative to: control; quantity = Emax; result = 1.34 ± 0.07 fold
SMILES = O=C1c2sc(-c3ccc(N4CCC(CO)CC4)nc3F)nc2CCN1c1cccnc1; test = ligand displacement, radioligand; setting = 1 µM; quantity = inhibition; result = -5%
SMILES = O=C(CCNC(=O)CNC(=O)CC(c1ccccc1)(c1ccccc1)c1ccccc1)NC[C@@H]1CCCN(Cc2ccc3cc(F)ccc3c2)C1; test = [3H]N-methylscopolamine binding; how to read = relative to: IC50 M2 over M3; quantity = selectivity ratio; result = 11.1
SMILES = C=CCn1c(=O)c2ccccc2n2c(SC(C(=O)OCC)c3ccccc3)nnc12 (stereo not drawn); test = agonist; setting = 16 h, together with: [3H]NMS; quantity = maximal stimulation; result = 113 ± 1%
SMILES = CCC(=O)N(C)c1ccc(Cl)c(Cl)c1; test = ligand displacement, radioligand; setting = 10 µM; quantity = inhibition; result = < 10%
SMILES = CCCCCCOc1ccc(C(=O)OCCN2CC=CCC2)cc1; test system = membranes; setting = 100 µM, 15 h, no carbachol; how to read = relative to: control; quantity = basal binding; result = 0.91 ± 0.02 fold
SMILES = CO[C@@H](C)c1c(NC(=O)Nc2cnc(-n3nccn3)c(C(F)(F)F)c2)cnc2sc(C)nc12; test = ligand displacement, radioligand; setting = 10 µM; quantity = inhibition; result = 0.7%
SMILES = Cc1[nH]nc2c1N=C(c1ccccc1Cl)c1cnc(N3CCOCC3)cc1N2; test = cell-free assay; setting = 10 µM; quantity = inhibition; result = 9%
SMILES = COc1ncc2nc(C)n(Cc3ncc(S(N)(=O)=O)cc3F)c2c1-c1ccccc1; test = antagonist, cell-based; setting = 10 µM; quantity = inhibition; result = -4.83%
SMILES = C[Si](C)(C)C[C@@H](CN)CC(=O)O; test = ligand displacement, radioligand; setting = 75 µM; quantity = inhibition; result = 3%
SMILES = Cn1ccc2cc(-n3c(=O)[nH]c4sc5c(c4c3=O)CCCC5)ccc21; test = cell-free assay, radioligand; setting = 10 µM; quantity = inhibition; result = -12%
SMILES = O=C(CCNC(=O)CNC(=O)CC(c1ccccc1)(c1ccccc1)c1ccccc1)NC[C@@H]1CCCN(Cc2ccc(F)cc2)C1; test = [3H]N-methylscopolamine binding; how to read = relative to: IC50 M2 over M3; quantity = selectivity ratio; result = 85 and > 45
SMILES = C=CCn1c(=O)c2ccccc2n2c(SCC(=O)Nc3ccc(NC(C)=O)cc3)nnc12; test = agonist; setting = 16 h, together with: [3H]NMS; quantity = maximal stimulation; result = < 110%
SMILES = Cc1cccc(O[C@H]2CCC[C@@H](C(C)CNCc3ccncc3)C2)c1 (relative stereo); test = ligand displacement; setting = 10 µM; quantity = inhibition; result = 72%
SMILES = CCCCCCOc1ccc(C(=O)OCC[N+]2(C)CC=CCC2)cc1 (stereo not drawn); test system = membranes; setting = 100 µM, 15 h, together with: carbachol; how to read = relative to: control; quantity = Emax; result = 1.24 ± 0.08 fold
SMILES = C=CCn1c(=O)c2ccccc2n2c(SC3CCOC3=O)nnc12 (stereo not drawn); test = agonist; setting = 16 h, together with: [3H]NMS; quantity = maximal stimulation; result = 125 ± 9%
SMILES = CCCCOc1ccc(C(=O)OCCN2CC=CCC2)cc1; test system = membranes; setting = 1 µM, 15 h, together with: carbachol; how to read = relative to: control; quantity = Emax; result = 1.37 ± 0.08 fold
SMILES = CC(C)Cn1c(SCC(=O)N2CCc3ccccc3C2)nc2cc(Cl)ccc2c1=O; test = ligand displacement, radioligand; setting = 10 µM; quantity = inhibition; result = 19%

Repeated from above:
SMILES = COc1ncc2nc(C)n(Cc3ncc(S(N)(=O)=O)cc3F)c2c1-c1ccccc1; test = antagonist, cell-based; setting = 10 µM; quantity = inhibition; result = -4.83%
